# Earlier results that unrelated publications cite.
# Lines come from different studies, so protocols differ. Numbers after ± are the reported error.
Substance,tested on,assay,test system,conditions,quantity,value
Oc1ccc(-c2[o+]c3cc(O)cc(O)c3cc2O)cc1,SARS-CoV-2,viral replication,,literature value,EC50,50 to 100 µM
CC1COc2ccccc2N1C(=O)C(Cl)Cl (centres unmarked),,CYP metabolism,"mouse, male, liver microsomes",together with: NADPH,intrinsic clearance,1.1 mL/min/mg protein
M2 transmembrane peptide (Influenza A virus),,"solid-state NMR, measured: His37",virus-mimetic membrane with cholesterol,"membrane-bound tetramer, macroscopic, second protonation",pKa,6.8
COc1c(O)cc2oc(-c3ccccc3)cc(=O)c2c1O,SARS-CoV-2,viral replication,,literature value,EC50,20 to 40 µM
CCN(CC)Cc1cc(Nc2ccnc3cc(Cl)ccc23)ccc1O,MERS-CoV,"viral replication, ELISA",Vero E6,,EC50,6.21 µM
CO/N=C(\C(=O)N[C@@H]1C(=O)N2C(C(=O)O)=C(COC(C)=O)CS[C@H]12)c1csc(N)n1,Acinetobacter baumannii,,clinical isolate RKI-No_4/15,,MIC,> 16 µg/mL
Cc1nc2cccc(OCC(C)(C)C(=O)NC(C)C)c2c(N)c1C(=O)O.Cc1nc2cccc(OCC(C)(C)C(=O)NC(C)C)c2c(N)c1C(=O)O.O.O.O=S(=O)(O)O,human peripheral blood lymphocytes,,,with and without S9,micronucleus test,negative
CCC(CC)COC(=O)[C@H](C)N[P@](=O)(OC[C@H]1O[C@@](C#N)(c2ccc3c(N)ncnn23)[C@H](O)[C@@H]1O)Oc1ccccc1,SARS-CoV-2,viral replication,Calu-3,,EC90,0.7 ± 0.2 µM

# For quick reference, copied from above:
Substance,tested on,assay,test system,conditions,quantity,value
CCC(CC)COC(=O)[C@H](C)N[P@](=O)(OC[C@H]1O[C@@](C#N)(c2ccc3c(N)ncnn23)[C@H](O)[C@@H]1O)Oc1ccccc1,SARS-CoV-2,viral replication,Calu-3,,EC90,0.7 ± 0.2 µM
